Published values from different studies.
A part holds a random share of what one study measured. “And” joins repeats or separate records; there may be more than shown.
Chain of UniProt P78368 (whole entry, looked up): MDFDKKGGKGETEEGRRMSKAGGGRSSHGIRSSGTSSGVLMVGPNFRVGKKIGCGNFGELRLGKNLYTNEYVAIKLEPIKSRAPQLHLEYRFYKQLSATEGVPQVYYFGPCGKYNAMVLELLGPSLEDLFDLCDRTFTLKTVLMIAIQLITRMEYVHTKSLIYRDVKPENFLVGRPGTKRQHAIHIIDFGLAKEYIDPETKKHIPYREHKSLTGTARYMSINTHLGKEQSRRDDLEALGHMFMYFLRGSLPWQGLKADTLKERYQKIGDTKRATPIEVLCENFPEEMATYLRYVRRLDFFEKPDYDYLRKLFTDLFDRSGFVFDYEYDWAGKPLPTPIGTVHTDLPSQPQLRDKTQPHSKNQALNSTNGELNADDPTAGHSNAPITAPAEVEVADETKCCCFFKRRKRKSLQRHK
Chain of UniProt Q13555 (whole entry, looked up): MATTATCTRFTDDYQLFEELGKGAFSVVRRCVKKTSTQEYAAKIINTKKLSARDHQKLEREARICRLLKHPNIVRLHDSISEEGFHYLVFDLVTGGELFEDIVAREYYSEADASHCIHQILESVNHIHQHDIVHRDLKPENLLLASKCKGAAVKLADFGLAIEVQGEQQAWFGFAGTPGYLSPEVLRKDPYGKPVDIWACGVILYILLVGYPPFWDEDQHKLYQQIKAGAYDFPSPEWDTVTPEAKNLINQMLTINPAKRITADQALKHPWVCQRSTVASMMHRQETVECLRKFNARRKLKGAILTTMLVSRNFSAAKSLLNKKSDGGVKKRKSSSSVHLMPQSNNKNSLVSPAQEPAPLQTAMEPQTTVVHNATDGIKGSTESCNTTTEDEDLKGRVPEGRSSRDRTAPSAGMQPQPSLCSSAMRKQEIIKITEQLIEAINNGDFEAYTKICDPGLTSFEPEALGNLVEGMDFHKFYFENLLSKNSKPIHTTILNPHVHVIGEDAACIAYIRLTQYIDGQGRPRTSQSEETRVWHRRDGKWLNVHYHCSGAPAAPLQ
Chain of UniProt P36507 (whole entry, looked up): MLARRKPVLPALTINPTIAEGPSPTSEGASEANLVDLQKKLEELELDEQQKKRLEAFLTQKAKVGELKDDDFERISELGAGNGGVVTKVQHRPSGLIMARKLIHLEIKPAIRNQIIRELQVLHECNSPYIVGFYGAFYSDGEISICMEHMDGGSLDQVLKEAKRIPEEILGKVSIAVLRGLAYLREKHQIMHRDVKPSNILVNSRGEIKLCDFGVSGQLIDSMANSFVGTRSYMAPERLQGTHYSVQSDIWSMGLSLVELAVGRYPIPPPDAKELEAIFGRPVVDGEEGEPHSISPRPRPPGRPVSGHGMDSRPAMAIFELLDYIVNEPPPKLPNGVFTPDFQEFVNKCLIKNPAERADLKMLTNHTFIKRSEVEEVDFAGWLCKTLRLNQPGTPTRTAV
Chain of UniProt P49841 (whole entry, looked up): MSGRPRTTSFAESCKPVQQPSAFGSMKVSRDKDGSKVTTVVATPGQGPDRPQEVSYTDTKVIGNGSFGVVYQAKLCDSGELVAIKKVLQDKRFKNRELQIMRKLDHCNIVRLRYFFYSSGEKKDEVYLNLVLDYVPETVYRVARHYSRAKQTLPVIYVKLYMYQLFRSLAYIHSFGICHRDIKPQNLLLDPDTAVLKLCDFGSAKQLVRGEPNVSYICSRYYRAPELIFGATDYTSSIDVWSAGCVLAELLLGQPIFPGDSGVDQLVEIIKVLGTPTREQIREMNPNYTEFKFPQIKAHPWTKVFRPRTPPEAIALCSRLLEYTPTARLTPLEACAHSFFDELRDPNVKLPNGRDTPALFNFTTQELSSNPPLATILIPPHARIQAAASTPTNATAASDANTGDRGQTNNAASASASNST
Chain of UniProt P22607 (whole entry, looked up): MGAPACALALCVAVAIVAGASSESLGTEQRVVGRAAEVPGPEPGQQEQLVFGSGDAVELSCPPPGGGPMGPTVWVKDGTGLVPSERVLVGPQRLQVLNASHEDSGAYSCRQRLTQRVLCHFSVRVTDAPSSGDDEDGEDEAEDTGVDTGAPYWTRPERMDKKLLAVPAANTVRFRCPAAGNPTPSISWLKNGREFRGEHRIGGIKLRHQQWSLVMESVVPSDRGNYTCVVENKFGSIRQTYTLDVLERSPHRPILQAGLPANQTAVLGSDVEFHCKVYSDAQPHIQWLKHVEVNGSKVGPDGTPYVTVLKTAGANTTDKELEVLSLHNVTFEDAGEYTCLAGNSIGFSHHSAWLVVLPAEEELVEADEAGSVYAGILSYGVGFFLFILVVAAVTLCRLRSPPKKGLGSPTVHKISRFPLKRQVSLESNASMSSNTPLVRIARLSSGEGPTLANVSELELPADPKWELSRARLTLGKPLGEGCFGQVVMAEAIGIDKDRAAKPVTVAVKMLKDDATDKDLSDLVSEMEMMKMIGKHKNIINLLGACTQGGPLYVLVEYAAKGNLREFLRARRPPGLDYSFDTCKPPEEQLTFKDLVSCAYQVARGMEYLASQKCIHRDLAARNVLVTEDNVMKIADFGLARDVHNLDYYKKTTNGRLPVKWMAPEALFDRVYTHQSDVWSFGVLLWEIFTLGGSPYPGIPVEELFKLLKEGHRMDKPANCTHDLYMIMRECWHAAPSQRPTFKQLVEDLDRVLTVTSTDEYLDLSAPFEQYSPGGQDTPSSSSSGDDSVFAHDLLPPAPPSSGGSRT
Chain of UniProt Q99683 (whole entry, looked up): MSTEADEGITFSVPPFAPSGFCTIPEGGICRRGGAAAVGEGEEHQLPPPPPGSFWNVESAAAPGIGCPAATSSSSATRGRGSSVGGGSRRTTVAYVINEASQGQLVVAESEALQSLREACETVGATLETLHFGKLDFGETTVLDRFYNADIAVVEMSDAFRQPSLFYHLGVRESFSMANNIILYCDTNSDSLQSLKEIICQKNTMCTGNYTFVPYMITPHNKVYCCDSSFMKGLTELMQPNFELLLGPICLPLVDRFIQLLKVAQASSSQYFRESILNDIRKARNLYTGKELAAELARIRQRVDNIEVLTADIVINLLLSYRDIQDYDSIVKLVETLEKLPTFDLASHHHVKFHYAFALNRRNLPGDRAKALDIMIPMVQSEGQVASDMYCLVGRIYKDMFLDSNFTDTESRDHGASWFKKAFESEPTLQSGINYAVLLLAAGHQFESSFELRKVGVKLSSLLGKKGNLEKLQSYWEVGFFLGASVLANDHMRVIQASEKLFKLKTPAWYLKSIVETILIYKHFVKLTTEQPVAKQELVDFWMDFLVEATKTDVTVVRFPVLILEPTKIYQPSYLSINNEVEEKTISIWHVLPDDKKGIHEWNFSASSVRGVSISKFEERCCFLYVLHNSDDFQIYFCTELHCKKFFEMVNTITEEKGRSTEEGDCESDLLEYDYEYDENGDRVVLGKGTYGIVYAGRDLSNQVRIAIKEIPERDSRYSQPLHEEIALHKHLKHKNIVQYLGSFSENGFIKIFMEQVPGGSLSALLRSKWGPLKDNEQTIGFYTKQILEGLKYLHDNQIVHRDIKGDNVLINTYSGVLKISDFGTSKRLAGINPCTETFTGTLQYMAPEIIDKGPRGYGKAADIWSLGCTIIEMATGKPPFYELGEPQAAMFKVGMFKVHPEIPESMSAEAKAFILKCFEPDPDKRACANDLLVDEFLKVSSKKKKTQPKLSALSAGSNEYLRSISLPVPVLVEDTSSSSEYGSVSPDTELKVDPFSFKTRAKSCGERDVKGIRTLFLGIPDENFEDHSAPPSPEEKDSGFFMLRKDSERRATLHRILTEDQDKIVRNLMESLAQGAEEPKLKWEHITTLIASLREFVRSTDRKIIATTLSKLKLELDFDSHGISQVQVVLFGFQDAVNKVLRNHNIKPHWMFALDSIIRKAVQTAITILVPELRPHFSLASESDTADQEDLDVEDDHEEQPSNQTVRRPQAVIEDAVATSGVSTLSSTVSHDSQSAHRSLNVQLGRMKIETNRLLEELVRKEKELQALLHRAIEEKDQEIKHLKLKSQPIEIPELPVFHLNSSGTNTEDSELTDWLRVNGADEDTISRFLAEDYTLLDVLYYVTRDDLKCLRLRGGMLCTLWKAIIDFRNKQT

Sample 1
SMILES: CC(C)(C(=O)O)[C@H](NC(=O)Cc1cccc(I)c1)c1ccc2oc(=O)[nH]c2c1
Technique: Incucyte 3D growth
Tested at: 30 µM
Reading: higher = more growth
Measurement: spheroid area
cell line = A375; conditions = 18.52 h; result = 1.33e+07 a.u. and 1.11e+07 a.u. and 1.05e+07 a.u. and 1.29e+07 a.u.
cell line = MEL-JUSO; conditions = 318.52 h; result = 3.22e+07 a.u. and 2.9e+07 a.u. and 4.43e+07 a.u. and 2.53e+07 a.u. and 3e+07 a.u. and 2.66e+07 a.u.
cell line = MEL-JUSO; conditions = 264.52 h; result = 2.23e+07 a.u. and 2.09e+07 a.u. and 1.72e+07 a.u. and 2.39e+07 a.u. and 3.49e+07 a.u. and 1.91e+07 a.u.
cell line = NCI-H358; conditions = 18 h; result = 3.16e+06 a.u. and 3.14e+06 a.u. and 3.54e+06 a.u. and 3.39e+06 a.u. and 3.46e+06 a.u. and 2.75e+06 a.u.
cell line = NCI-H358; conditions = 0 h; result = 3.25e+06 a.u. and 3.32e+06 a.u. and 3.44e+06 a.u. and 3.59e+06 a.u. and 3.31e+06 a.u. and 3.48e+06 a.u.
cell line = NCI-H358; conditions = 210 h; result = 7.91e+06 a.u. and 9.99e+06 a.u. and 7.52e+06 a.u. and 6.15e+06 a.u. and 1.01e+07 a.u. and 9.47e+06 a.u.
cell line = PC-9; conditions = 246 h; result = 1.9e+09 a.u. and 1.83e+09 a.u. and 1.88e+09 a.u. and 1.92e+09 a.u. and 1.87e+09 a.u. and 1.86e+09 a.u.
cell line = MEL-JUSO; conditions = 192.52 h; result = 1.79e+07 a.u. and 1.57e+07 a.u. and 1.77e+07 a.u. and 1.99e+07 a.u. and 1.33e+07 a.u. and 1.58e+07 a.u.

Sample 2
Compound: C=CCc1ccc(O)c(-c2cc(CC=C)ccc2O)c1
Read-out: chloride current
Technique: inside-out patch clamp
Tested at: 30 µM
Measurement: normalized current
ANO1 del476-501/K629A: Anoctamin-1 (ANO1, Homo sapiens, UniProt Q5XXA6, del476-501/K629A)
Chain of UniProt Q5XXA6 (whole entry, unmodified, looked up): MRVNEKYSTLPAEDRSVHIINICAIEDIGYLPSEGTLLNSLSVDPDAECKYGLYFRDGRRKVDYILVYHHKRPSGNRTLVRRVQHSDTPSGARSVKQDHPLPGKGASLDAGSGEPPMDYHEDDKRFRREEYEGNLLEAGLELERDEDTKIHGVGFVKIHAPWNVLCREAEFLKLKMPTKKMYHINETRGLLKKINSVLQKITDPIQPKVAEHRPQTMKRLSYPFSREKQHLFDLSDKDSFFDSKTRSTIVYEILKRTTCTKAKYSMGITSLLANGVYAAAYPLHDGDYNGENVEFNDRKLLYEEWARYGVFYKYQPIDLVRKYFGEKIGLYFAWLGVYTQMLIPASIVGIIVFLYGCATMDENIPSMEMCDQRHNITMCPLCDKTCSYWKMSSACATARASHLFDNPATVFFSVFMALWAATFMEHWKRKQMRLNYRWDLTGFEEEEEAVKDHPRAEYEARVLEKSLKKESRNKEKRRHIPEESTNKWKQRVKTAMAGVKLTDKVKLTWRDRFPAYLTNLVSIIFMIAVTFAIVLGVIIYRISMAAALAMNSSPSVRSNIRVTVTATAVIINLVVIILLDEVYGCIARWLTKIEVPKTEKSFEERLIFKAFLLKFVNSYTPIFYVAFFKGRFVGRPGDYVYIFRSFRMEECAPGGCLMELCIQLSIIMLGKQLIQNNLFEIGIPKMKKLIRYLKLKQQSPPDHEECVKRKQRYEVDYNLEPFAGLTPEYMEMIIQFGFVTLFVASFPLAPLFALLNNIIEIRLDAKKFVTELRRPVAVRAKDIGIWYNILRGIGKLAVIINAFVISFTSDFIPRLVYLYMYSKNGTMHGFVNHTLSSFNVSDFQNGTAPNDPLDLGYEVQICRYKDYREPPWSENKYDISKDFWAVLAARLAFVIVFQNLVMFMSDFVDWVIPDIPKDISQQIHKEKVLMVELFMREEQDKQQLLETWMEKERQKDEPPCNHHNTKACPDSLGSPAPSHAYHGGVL
target = Anoctamin-1 (ANO1, Homo sapiens, UniProt Q5XXA6, del476-501/R541A); conditions = membrane voltage 20 mV; result = 0.114
target = ANO1 del476-501/K629A; conditions = membrane voltage 20 mV; result = 0.118
target = ANO1 del476-501/K629A; conditions = membrane voltage 40 mV; result = 0.245
target = Anoctamin-1 (ANO1, Homo sapiens, UniProt Q5XXA6, del476-501/E659A/K629A); conditions = membrane voltage 60 mV; result = 0.411
target = Anoctamin-1 (ANO1, Homo sapiens, UniProt Q5XXA6, del476-501/E649A/R541A); assay = inhibitor; conditions = R515A/E623A mutant at -80 mV; result = -0.336
target = ANO1 del476-501/K629A; conditions = membrane voltage 60 mV; result = 0.395

Sample 3
SMILES: c1ccc(-c2cnc(Nc3ccc(OCCN4CCCC4)cc3)s2)cc1
Read-out: enzyme activity
Mode: inhibitor
Tested at: 0.5 µM
Reference: control
Measurement: remaining activity
target = Ephrin type-A receptor 3 (EPHA3, Homo sapiens, UniProt P29320); result = 98.7%
target = Ribosomal protein S6 kinase alpha-2 (RPS6KA2, Homo sapiens, UniProt Q15349); result = 85%
target = Serine/threonine-protein kinase ULK2 (ULK2, Homo sapiens, UniProt Q8IYT8); result = 78.3%
target = Fibroblast growth factor receptor 1 (FGFR1, Homo sapiens, UniProt P11362); result = 75.4%
target = Dual specificity mitogen-activated protein kinase kinase 2 (MAP2K2, Homo sapiens, UniProt P36507); result = 90.2%
target = Mitogen-activated protein kinase kinase kinase 14 (MAP3K14, Homo sapiens, UniProt Q99558); result = 81.9%
target = Tyrosine-protein kinase Lck (LCK, Homo sapiens, UniProt P06239); result = 48.6%
target = Tyrosine-protein kinase JAK3 (JAK3, Homo sapiens, UniProt P52333); result = 108%
target = Angiopoietin-1 receptor (TEK, Homo sapiens, UniProt Q02763); result = 102%
target = Casein kinase I isoform gamma-2 (CSNK1G2, Homo sapiens, UniProt P78368); result = 100%
target = Mitogen-activated protein kinase kinase kinase 5 (MAP3K5, Homo sapiens, UniProt Q99683); result = 91.1%
target = Fibroblast growth factor receptor 3 (FGFR3, Homo sapiens, UniProt P22607); result = 98.2%
target = Activin receptor type-1B (ACVR1B, Homo sapiens, UniProt P36896); result = 101%
target = Casein kinase I isoform gamma-3 (CSNK1G3, Homo sapiens, UniProt Q9Y6M4); result = 91.8%
target = Tyrosine-protein kinase FRK (FRK, Homo sapiens, UniProt P42685); result = 83%
target = Serine/threonine-protein kinase TBK1 (TBK1, Homo sapiens, UniProt Q9UHD2); result = 87.1%
target = Serine/threonine-protein kinase Nek6 (NEK6, Homo sapiens, UniProt Q9HC98); result = 102%
target = Glycogen synthase kinase-3 beta (GSK3B, Homo sapiens, UniProt P49841); result = 100%
target = Rhodopsin kinase GRK7 (GRK7, Homo sapiens, UniProt Q8WTQ7); result = 90.2%
target = Tyrosine-protein kinase Mer (MERTK, Homo sapiens, UniProt Q12866); result = 87.8%
target = Serine/threonine-protein kinase TAO2 (TAOK2, Homo sapiens, UniProt Q9UL54); result = 70.7%
target = Macrophage-stimulating protein receptor (MST1R, Homo sapiens, UniProt Q04912); result = 107%
target = Mitogen-activated protein kinase 3 (MAPK3, Homo sapiens, UniProt P27361); result = 99.8%

Sample 4
Compound: O=C(N[C@H]1CCCCC/C=C\C2C[C@@]2(C(=O)O)NC(=O)[C@@H]2C[C@@H](Oc3ccncc3)CN2C1=O)OC1CCCC1 (stereo partly drawn)
Tested at: 1 µM
Measurement: remaining binding
target = Homeodomain-interacting protein kinase 4 (HIPK4, Homo sapiens, UniProt Q8NE63); assay = binding, competition with immobilised ligand; result = 100%
target = Mitogen-activated protein kinase 6 (MAPK6, Homo sapiens, UniProt Q16659); assay = binding, competition with immobilised ligand; result = 92%
target = Serine/threonine-protein kinase DCLK2 (DCLK2, Homo sapiens, UniProt Q8N568); assay = binding, competition with immobilised ligand; result = 93%
target = Calcium/calmodulin-dependent protein kinase type II subunit gamma (CAMK2G, Homo sapiens, UniProt Q13555); assay = binding, competition with immobilised ligand; result = 86%
target = Epidermal growth factor receptor (EGFR, Homo sapiens, UniProt P00533, A750P/del747-749); assay = cell-free assay, competition with immobilised ligand; result = 100%
target = Casein kinase I isoform gamma-1 (CSNK1G1, Homo sapiens, UniProt Q9HCP0); assay = binding, competition with immobilised ligand; result = 88%
target = Activin receptor type-2B (ACVR2B, Homo sapiens, UniProt Q13705); assay = binding, competition with immobilised ligand; result = 100%
target = Serine/threonine-protein kinase SIK1 (SIK1, Homo sapiens, UniProt P57059); assay = competition binding; result = 83%
target = Serine/threonine-protein kinase N2 (PKN2, Homo sapiens, UniProt Q16513); assay = binding, competition with immobilised ligand; result = 75%
target = Receptor-type tyrosine-protein kinase FLT3 (FLT3, Homo sapiens, UniProt P36888, D835V); assay = binding, competition with immobilised ligand; result = 92%
target = Tyrosine-protein kinase ABL1, non-phosphorylated (ABL1, Homo sapiens, UniProt P00519, Q252H); assay = binding, competition with immobilised ligand; result = 65%
target = Epidermal growth factor receptor (EGFR, Homo sapiens, UniProt P00533, del747-752/P753S); assay = cell-free assay, competition with immobilised ligand; result = 85%
target = Casein kinase I isoform gamma-2 (CSNK1G2, Homo sapiens, UniProt P78368); assay = binding, competition with immobilised ligand; result = 63%
target = Receptor-type tyrosine-protein kinase FLT3 (FLT3, Homo sapiens, UniProt P36888, D835Y); assay = binding, competition with immobilised ligand; result = 98%

For quick reference, copied from above (sample 4):
target = Casein kinase I isoform gamma-1 (CSNK1G1, Homo sapiens, UniProt Q9HCP0); assay = binding, competition with immobilised ligand; result = 88%
target = Activin receptor type-2B (ACVR2B, Homo sapiens, UniProt Q13705); assay = binding, competition with immobilised ligand; result = 100%
target = Serine/threonine-protein kinase SIK1 (SIK1, Homo sapiens, UniProt P57059); assay = competition binding; result = 83%
target = Serine/threonine-protein kinase N2 (PKN2, Homo sapiens, UniProt Q16513); assay = binding, competition with immobilised ligand; result = 75%
target = Receptor-type tyrosine-protein kinase FLT3 (FLT3, Homo sapiens, UniProt P36888, D835V); assay = binding, competition with immobilised ligand; result = 92%
target = Tyrosine-protein kinase ABL1, non-phosphorylated (ABL1, Homo sapiens, UniProt P00519, Q252H); assay = binding, competition with immobilised ligand; result = 65%
target = Epidermal growth factor receptor (EGFR, Homo sapiens, UniProt P00533, del747-752/P753S); assay = cell-free assay, competition with immobilised ligand; result = 85%
